Published values gathered from unrelated publications.
A part holds a random share of what one study measured.
UniProt P54760, sequence (whole entry, looked up): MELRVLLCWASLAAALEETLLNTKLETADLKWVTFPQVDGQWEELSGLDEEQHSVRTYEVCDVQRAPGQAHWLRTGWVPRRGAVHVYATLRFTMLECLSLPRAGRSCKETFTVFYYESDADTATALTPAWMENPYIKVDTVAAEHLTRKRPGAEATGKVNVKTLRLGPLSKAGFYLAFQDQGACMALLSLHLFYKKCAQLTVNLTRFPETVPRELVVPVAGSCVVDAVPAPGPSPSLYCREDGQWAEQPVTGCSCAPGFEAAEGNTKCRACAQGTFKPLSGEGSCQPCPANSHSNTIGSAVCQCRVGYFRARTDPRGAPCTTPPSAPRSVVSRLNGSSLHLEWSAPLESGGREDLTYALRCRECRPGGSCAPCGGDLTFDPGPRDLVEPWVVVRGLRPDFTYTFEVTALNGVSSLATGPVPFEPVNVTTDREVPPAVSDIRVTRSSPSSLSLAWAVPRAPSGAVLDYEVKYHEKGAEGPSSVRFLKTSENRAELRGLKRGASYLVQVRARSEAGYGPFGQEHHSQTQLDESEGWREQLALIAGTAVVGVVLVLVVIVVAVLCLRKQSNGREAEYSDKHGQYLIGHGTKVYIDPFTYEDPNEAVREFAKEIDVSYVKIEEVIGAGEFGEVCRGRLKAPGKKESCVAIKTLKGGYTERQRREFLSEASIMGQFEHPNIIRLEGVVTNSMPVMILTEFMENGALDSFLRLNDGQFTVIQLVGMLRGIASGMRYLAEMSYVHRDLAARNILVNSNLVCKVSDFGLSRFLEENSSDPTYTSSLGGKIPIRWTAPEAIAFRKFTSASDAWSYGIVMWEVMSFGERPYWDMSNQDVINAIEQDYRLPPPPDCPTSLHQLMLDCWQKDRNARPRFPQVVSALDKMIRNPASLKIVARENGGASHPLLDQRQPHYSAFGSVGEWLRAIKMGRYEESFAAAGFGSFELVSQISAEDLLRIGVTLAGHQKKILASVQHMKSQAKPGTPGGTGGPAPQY
UniProt Q13163, sequence (whole entry, looked up): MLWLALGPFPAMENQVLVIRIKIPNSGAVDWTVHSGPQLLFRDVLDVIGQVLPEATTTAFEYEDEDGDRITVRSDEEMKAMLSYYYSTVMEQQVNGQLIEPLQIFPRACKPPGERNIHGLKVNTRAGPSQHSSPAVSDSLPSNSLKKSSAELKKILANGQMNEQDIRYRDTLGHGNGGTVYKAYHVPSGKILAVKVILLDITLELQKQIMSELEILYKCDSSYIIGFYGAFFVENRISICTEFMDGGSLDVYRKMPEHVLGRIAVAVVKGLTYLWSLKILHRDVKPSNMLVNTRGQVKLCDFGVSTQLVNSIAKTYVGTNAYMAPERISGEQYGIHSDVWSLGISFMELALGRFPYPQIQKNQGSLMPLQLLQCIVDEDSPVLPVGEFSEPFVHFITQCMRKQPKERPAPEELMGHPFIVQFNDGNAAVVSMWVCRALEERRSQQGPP
UniProt Q9UF33, sequence (whole entry, looked up): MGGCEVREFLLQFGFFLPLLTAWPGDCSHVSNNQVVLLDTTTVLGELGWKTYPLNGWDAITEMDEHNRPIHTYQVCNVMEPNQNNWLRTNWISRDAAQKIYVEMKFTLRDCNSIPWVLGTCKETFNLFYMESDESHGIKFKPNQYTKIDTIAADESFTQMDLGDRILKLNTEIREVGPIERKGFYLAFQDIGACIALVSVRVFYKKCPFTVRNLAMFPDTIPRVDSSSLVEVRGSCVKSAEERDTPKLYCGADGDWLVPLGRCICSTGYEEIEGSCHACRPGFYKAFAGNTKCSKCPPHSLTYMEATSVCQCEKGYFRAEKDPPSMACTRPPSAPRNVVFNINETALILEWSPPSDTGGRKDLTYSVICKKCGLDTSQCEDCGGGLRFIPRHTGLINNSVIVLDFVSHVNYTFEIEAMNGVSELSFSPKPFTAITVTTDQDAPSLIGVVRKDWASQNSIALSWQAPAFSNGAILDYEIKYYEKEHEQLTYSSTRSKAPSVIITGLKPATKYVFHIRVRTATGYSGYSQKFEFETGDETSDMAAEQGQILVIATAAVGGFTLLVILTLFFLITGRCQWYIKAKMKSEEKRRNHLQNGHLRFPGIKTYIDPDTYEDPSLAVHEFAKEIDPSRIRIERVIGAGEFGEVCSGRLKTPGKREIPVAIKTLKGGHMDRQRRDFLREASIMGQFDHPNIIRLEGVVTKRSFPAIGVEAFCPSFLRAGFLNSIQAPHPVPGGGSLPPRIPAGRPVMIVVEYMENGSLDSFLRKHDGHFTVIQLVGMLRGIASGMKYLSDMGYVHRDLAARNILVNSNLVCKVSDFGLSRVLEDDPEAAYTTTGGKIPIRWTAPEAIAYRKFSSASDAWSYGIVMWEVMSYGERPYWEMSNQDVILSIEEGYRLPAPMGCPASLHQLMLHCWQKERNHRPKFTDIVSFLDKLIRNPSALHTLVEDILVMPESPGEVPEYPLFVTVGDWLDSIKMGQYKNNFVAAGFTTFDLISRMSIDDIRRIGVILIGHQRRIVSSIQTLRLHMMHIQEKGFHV
UniProt P57058, sequence (whole entry, looked up): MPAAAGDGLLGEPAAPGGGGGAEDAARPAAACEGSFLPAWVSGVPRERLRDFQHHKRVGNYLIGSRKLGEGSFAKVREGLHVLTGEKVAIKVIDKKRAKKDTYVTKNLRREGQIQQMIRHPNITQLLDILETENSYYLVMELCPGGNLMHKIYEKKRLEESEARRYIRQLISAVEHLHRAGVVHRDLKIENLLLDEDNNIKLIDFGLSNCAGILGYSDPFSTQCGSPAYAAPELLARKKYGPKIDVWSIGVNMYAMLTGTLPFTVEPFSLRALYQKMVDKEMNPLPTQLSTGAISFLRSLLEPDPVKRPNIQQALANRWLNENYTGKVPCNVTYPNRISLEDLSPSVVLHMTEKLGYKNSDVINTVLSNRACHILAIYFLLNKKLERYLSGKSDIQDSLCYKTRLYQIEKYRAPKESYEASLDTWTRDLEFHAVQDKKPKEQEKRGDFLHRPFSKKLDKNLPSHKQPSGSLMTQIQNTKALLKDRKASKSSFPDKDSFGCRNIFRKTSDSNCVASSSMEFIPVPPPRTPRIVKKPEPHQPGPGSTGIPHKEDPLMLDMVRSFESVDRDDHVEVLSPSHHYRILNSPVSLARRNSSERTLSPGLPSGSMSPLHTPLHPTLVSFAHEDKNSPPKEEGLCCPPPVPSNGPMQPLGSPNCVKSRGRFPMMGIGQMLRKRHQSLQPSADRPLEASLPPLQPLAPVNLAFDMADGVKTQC
UniProt O95747, sequence (whole entry, looked up): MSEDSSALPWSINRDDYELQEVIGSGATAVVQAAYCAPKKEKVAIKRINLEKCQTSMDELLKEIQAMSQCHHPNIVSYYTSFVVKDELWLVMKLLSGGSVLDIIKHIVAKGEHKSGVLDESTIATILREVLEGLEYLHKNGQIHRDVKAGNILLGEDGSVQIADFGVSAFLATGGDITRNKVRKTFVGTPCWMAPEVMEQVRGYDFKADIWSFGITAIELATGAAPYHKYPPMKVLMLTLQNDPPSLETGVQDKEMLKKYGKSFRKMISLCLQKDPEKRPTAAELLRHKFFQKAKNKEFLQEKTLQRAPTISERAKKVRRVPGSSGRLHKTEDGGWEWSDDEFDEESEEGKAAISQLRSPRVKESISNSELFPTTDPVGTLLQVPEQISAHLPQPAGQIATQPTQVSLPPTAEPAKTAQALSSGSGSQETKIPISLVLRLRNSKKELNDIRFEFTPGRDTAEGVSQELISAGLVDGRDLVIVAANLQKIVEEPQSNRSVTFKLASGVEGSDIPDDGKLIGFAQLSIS
UniProt P46734, sequence (whole entry, looked up): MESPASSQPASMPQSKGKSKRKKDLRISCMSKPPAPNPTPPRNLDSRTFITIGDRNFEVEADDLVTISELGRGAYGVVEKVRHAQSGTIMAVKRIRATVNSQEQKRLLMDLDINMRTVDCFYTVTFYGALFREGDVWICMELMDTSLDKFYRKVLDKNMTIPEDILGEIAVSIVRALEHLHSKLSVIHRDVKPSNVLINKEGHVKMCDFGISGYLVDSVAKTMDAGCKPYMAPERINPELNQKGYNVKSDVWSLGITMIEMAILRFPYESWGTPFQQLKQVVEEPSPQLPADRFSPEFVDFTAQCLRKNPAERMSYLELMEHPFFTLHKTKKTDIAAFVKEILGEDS

Sample 1
Technique: PRP chromatography estimate
Sample: 1,9-decadiene/PBS
pH: 7.4
Structure (SMILES) | logD
CC(C)C[C@@H]1NC(=O)[C@H](C)NC(=O)[C@@H](CCC(=O)N2CCCC2)NC(=O)[C@H](C)NC(=O)[C@H](C)NC(=O)[C@H](CC(C)C)NC(=O)[C@H](CC(C)C)NC1=O | -3.57
CC(C)C[C@@H]1NC(=O)[C@@H](C)NC(=O)[C@H](C)NC(=O)[C@H](C)NC(=O)[C@H](C(C)C)NC(=O)[C@H](CC(C)C)NC(=O)[C@@H](CC(C)C)NC1=O | -2.44
CC(C)C[C@@H]1NC(=O)[C@H](C)NC(=O)[C@H](C)NC(=O)[C@@H](CC(C)C)NC(=O)[C@H](C)NC(=O)[C@H](CC(C)C)NC(=O)[C@H](CC(C)C)NC1=O | -1.82
CC(C)C[C@@H]1NC(=O)[C@H](CC(C)C)NC(=O)[C@@H](C(C)C)NC(=O)[C@H](C)NC(=O)[C@H](C(C)C)NC(=O)[C@H](C)NC(=O)[C@H](C)NC1=O | -2.96
CC(C)C[C@@H]1NC(=O)[C@H](CC(C)C)NC(=O)[C@@H](C(C)C)NC(=O)[C@H](CC(C)C)NC(=O)[C@H](C(C)C)NC(=O)[C@H](C)NC(=O)[C@H](C)NC1=O | -1.41
CC(C)C[C@@H]1NC(=O)[C@@H](C)NC(=O)[C@H](C)NC(=O)[C@@H](CC(C)C)NC(=O)[C@H](C(C)C)NC(=O)[C@H](CC(C)C)NC(=O)[C@@H](CC(C)C)NC1=O | -0.562
CC(C)C[C@@H]1NC(=O)[C@H](C(C)C)NC(=O)[C@H](CCC(=O)N2CCCC2)NC(=O)[C@H](CC(C)C)NC(=O)[C@@H](CCC(=O)N2CCCC2)NC(=O)[C@H](CC(C)C)NC(=O)[C@@H](CC(C)C)NC1=O | -0.917
CC(C)C[C@@H]1NC(=O)[C@H](C)NC(=O)[C@@H](CC(C)C)NC(=O)[C@H](CC(C)C)NC(=O)[C@@H](CCC(=O)N2CCCC2)NC(=O)[C@H](CC(C)C)NC(=O)[C@@H](CC(C)C)NC1=O | -0.31

Sample 2
SMILES: C=CCc1ccc(O)c(-c2cc(CC=C)ccc2O)c1
Effect on: chloride current
ANO1 del476-501/R541A: Anoctamin-1 (ANO1, Homo sapiens, UniProt Q5XXA6, del476-501/R541A)
UniProt Q5XXA6, sequence (whole entry, unmodified, looked up): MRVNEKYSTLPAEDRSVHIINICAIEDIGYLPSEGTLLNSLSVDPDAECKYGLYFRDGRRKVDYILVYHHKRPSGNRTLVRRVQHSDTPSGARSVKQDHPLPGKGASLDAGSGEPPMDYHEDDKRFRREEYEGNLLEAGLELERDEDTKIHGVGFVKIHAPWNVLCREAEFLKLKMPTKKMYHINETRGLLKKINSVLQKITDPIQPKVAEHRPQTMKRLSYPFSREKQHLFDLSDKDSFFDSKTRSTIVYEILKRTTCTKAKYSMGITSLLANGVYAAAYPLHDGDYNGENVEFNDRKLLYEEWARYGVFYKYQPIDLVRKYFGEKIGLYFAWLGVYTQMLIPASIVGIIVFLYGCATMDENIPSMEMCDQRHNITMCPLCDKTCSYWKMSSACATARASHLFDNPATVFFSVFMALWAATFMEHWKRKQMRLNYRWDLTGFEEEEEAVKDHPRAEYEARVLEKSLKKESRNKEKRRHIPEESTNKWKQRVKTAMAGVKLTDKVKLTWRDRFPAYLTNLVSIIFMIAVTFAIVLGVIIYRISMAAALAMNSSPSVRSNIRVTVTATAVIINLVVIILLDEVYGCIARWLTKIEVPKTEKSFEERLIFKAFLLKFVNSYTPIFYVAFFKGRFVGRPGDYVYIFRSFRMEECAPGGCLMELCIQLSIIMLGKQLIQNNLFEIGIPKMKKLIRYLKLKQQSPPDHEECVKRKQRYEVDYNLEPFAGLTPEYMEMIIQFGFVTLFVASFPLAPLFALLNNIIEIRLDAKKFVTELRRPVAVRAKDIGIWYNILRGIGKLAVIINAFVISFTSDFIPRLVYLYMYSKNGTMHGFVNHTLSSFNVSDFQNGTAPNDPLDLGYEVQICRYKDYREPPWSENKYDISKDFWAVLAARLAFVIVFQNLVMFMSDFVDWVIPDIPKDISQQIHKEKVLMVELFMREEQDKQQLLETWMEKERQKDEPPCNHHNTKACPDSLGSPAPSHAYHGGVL
ANO1: Anoctamin-1 (ANO1, Homo sapiens, UniProt Q5XXA6)
target | test | setting | scale | normalized current
Anoctamin-1 (ANO1, Homo sapiens, UniProt Q5XXA6, del476-501) | whole-cell voltage clamp | 30 µM, membrane voltage 0 mV, added: 4 µM Ca2+ (saturating) | – | -0.00026
Anoctamin-1 (ANO1, Homo sapiens, UniProt Q5XXA6, del476-501/K629A) | inhibitor, whole-cell voltage clamp | 10 µM | relative to: untreated | 0.964
ANO1 del476-501/R541A | whole-cell voltage clamp | 3 µM, membrane voltage 0 mV, added: 4 µM Ca2+ (saturating) | – | -0.0053
ANO1 del476-501/R541A | inside-out patch clamp | 30 µM, membrane voltage -40 mV | – | -0.217
ANO1 | inside-out patch clamp | 30 µM, membrane voltage 100 mV | – | 0.846
ANO1 | inside-out patch clamp | 30 µM, membrane voltage 60 mV | – | 0.536
ANO1 del476-501/R541A | inside-out patch clamp | 30 µM, membrane voltage 60 mV | – | 0.382

Sample 3
Structure (SMILES): Cc1nccc(COC(=O)N2C[C@@H]3[C@@H](CNC(=O)c4ccc5[nH]nnc5c4)[C@@H]3C2)n1
Effect on: cell-free assay
Technique: competition with immobilised ligand
Tested at: 1 µM
target | remaining binding
BTK (Homo sapiens, UniProt Q06187) | 99%
PHKG2 (Homo sapiens, UniProt P15735) | 97%
TAOK2 (Homo sapiens, UniProt Q9UL54) | 91%
WNK2 (Homo sapiens, UniProt Q9Y3S1) | 79%
RET (Homo sapiens, UniProt P07949, V804L) | 100%
EPHA3 (Homo sapiens, UniProt P29320) | 93%
MAP2K5 (Homo sapiens, UniProt Q13163) | 100%
EPHB4 (Homo sapiens, UniProt P54760) | 100%
GRK4 (Homo sapiens, UniProt P32298) | 100%
OXSR1 (Homo sapiens, UniProt O95747) | 100%
NEK1 (Homo sapiens, UniProt Q96PY6) | 100%
Tyrosine-protein kinase ABL1, non-phosphorylated (ABL1, Homo sapiens, UniProt P00519, Q252H) | 100%
GRK3 (Homo sapiens, UniProt P35626) | 70%
Tyrosine-protein kinase ABL1, phosphorylated (ABL1, Homo sapiens, UniProt P00519, T315I) | 95%
PRKCH (Homo sapiens, UniProt P24723) | 98%
NEK9 (Homo sapiens, UniProt Q8TD19) | 100%
EPHA6 (Homo sapiens, UniProt Q9UF33) | 98%
PRKD2 (Homo sapiens, UniProt Q9BZL6) | 92%
Tyrosine-protein kinase JAK2, JH1 (JAK2, Homo sapiens, UniProt O60674) | 93%
PAK4 (Homo sapiens, UniProt O96013) | 100%
MAPK14 (Homo sapiens, UniProt Q16539) | 100%
TGFBR2 (Homo sapiens, UniProt P37173) | 100%
HUNK (Homo sapiens, UniProt P57058) | 81%
ERBB2 (Homo sapiens, UniProt P04626) | 99%
MAP2K3 (Homo sapiens, UniProt P46734) | 84%

Sample 4
Target: Ephrin type-B receptor 4 (EPHB4, Homo sapiens, UniProt P54760)
Effect on: enzyme activity
Action: inhibitor
Tested at: 0.5 µM
Relative to: control
SMILES | remaining activity [%]
c1ccc(-c2[nH]ncc2-c2ccnc3ccccc23)nc1 | 89.1
O=C(Nc1cccc(Nc2nccc(Nc3cccc(C(F)(F)F)c3)n2)c1)C1CC1 | 91.3
c1ccc(-c2cnc(Nc3ccc(OCCN4CCCC4)cc3)s2)cc1 | 91.9
Ic1cccc(CSc2nnc(-c3ccncc3)o2)c1 | 101
COc1cc2c(cc1OC)-c1[nH]nc(Nc3cccc(F)c3)c1C2 | 95.3
Cc1nc2cc3nc(-c4cccs4)cnc3cc2n1C | 92.1
N#C/C(=C\c1ccc(O)c(O)c1)C(=O)NCc1ccccc1 | 88.2
O=C1c2ccccc2-c2n[nH]c3cccc1c23 | 90.9
O=c1cc(-c2cccc3c2Sc2ccccc2S3)oc(N2CCOCC2)c1 | 94.3
CCOc1nc(NC(=O)Cc2cc(OC)ccc2OC)cc(N)c1C#N | 98.3
Cn1nc2c3c(cccc31)C(=O)c1ccccc1-2 | 99.9
CCN(CC)CCNC(=O)c1c(C)[nH]c(/C=C2\C(=O)Nc3ccc(Cl)cc32)c1C | 76.9
CN(C)C[C@H]1CCn2c(c(C3=C(c4cn(C)c5ccccc45)C(=O)NC3=O)c3ccccc32)C1 | 90.9
Cc1cc2ncc(-c3ccccc3)nc2cc1C | 95.6
Cc1cn(-c2cc(NC(=O)c3ccc(C)c(Nc4nccc(-c5cccnc5)n4)c3)cc(C(F)(F)F)c2)cn1 | 11.4
C[C@@H]1CCN(C(=O)CC#N)C[C@@H]1N(C)c1ncnc2[nH]ccc12 | 89.8
O=C1C(Cl)=C(N2C(=O)CCC2=O)C(=O)c2ccccc21 | 98.7
COc1cc2ncnc(Nc3ccc(O)c(Br)c3)c2cc1OC | 52.2
N#Cc1c(NC(=O)c2cccc3ccccc23)sc2c1CCCC2 | 99.5
O=C(NC(NC(=S)Nc1ccc(F)c([N+](=O)[O-])c1)C(Cl)(Cl)Cl)C(c1ccccc1)c1ccccc1 (centres unmarked) | 101
CCN(CC)C(=O)c1ccc(Nc2nc(OCC3CCCCC3)c3[nH]cnc3n2)cc1 | 85
COc1cc2ncnc(Nc3cccc(Cl)c3)c2cc1OC | 59.7

Some of these lines once more (sample 1):
Structure (SMILES) | logD
CC(C)C[C@@H]1NC(=O)[C@@H](C)NC(=O)[C@H](C)NC(=O)[C@H](C)NC(=O)[C@H](C(C)C)NC(=O)[C@H](CC(C)C)NC(=O)[C@@H](CC(C)C)NC1=O | -2.44
CC(C)C[C@@H]1NC(=O)[C@@H](C)NC(=O)[C@H](C)NC(=O)[C@@H](CC(C)C)NC(=O)[C@H](C(C)C)NC(=O)[C@H](CC(C)C)NC(=O)[C@@H](CC(C)C)NC1=O | -0.562
CC(C)C[C@@H]1NC(=O)[C@H](C)NC(=O)[C@@H](CC(C)C)NC(=O)[C@H](CC(C)C)NC(=O)[C@@H](CCC(=O)N2CCCC2)NC(=O)[C@H](CC(C)C)NC(=O)[C@@H](CC(C)C)NC1=O | -0.31
CC(C)C[C@@H]1NC(=O)[C@H](C(C)C)NC(=O)[C@H](CCC(=O)N2CCCC2)NC(=O)[C@H](CC(C)C)NC(=O)[C@@H](CCC(=O)N2CCCC2)NC(=O)[C@H](CC(C)C)NC(=O)[C@@H](CC(C)C)NC1=O | -0.917
CC(C)C[C@@H]1NC(=O)[C@H](CC(C)C)NC(=O)[C@@H](C(C)C)NC(=O)[C@H](C)NC(=O)[C@H](C(C)C)NC(=O)[C@H](C)NC(=O)[C@H](C)NC1=O | -2.96
